# Results pooled from the literature.
# Several values in a cell are separate wells, animals, samples, runs or records.
Compound,cell line,test,conditions,how to read,measurement,result
Cc1cc(Cl)cc(-c2ccnc3cc(CN4C(=O)C5C(C4=O)C5(C)C)sc23)c1C[C@@H]1CNCCO1 (some centres unmarked),CHP-212 resistant cells (pooled),PI flow cytometry,"0.1 µM, 24 h",,cells in G2/M phase,16.7% and 13.7% and 10.3%
CN1CCCNC(=O)c2cccc(c2)C(=O)NCCCN(C)CCCNc2cccc3c2C(=O)c2cccc(c2C3=O)NCCC1,SAS,"RNA-Seq, item: KCNB1 mRNA","1 µM, 6 h",reference: untreated cells,log2 fold change,4.01
CCC(=CCc1c(O)cc2c(c1O)C(=O)CC(c1cc(O)ccc1OC)O2)CC (centres unmarked),HeLa,"cell growth or viability, MTT","100 µM, 48 h",,inhibition,86.4%
CC(=O)N[C@@H](CC(=O)O)C(=O)N[C@@H](CCC(=O)O)C(=O)N[C@H](C(=O)N[C@@H](CC(=O)O)C(=O)COC(=O)c1c(C)cccc1C)C(C)C,"THP-1 cells, LPS-primed","pyroptosis, LDH release","25 µM, LPS 1 µg/mL, 4 h, added: nigericin 5 µM, 2 h",,cell lysis,32.6% and 33.7%
O=S(=O)(N[C@H]1CCO[C@@H](C2c3ccccc3CCc3ccccc32)C1)c1ccc(OC(F)(F)F)cc1,D425,"immunoblot, item: Bad","concentration not given, 24 h",,phosphorylation level,decreased
COC(=O)C1=C(C)Oc2cc(OC)ccc2C1C(C(C)=O)C(=O)OC (centres unmarked),3T3-L1 mature adipocytes,"lipolysis, Oil Red O staining",IC20,,mean lipid content,0.657 OD492
Cc1ncsc1-c1ccc(C(C)NC(=O)C2CC(O)CN2C(=O)C(NC(=O)CCCCCCCCCCN2CCCC(Nc3ncc(Cl)c(Nc4ccccc4S(=O)(=O)C(C)C)n3)C2)C(C)(C)C)cc1 (centres unmarked),22Rv1,"RNA-seq, item: TASOR mRNA",concentration not given,reference: DMSO,log2 fold change,-1.7
C[C@@H]1CC[C@@H]([C@@](O)(CNCc2cccc(F)c2)COCc2ccccc2)[C@H](OCc2ccccc2)C1,A2780,"cell growth or viability, MTT","10 µM, 72 h",,inhibition,95.2%
CNS(=O)(=O)Nc1nccc(Cc2c(C)c3ccc(Oc4ncccc4F)cc3oc2=O)c1F,KMBC-2,"cell viability, CellTiter-Glo",7 days,,IC50,> 1 µM
O=C(C[Se]C(=O)c1ccc2ccccc2c1)Nc1cccc(C(F)(F)F)c1,NCI60 NSCLC subpanel mean,cell growth,,,TGI,3.32 µM
COc1cccc(C2CC(c3ccccc3Cl)Nc3nc(N)nn32)c1 (centres unmarked),MEF TRE-FLAG-LMNB1,item: LMNB1,100 µM,,maximum inhibition,71%
CC(C)(C)c1ccc([C@H](O)C[C@H](CO)NC(=O)CCCCCOc2ccc3ccccc3c2)cc1,HeLa,"CERT activity, HPLC-MS/MS lipidomics, item: ceramide 20","1 µM, 24 h, not cell-number normalised",,ceramide level,100 pmol/sample and 159 pmol/sample and 128 pmol/sample
COC1CCN(C(=O)/C=C/c2nn(Cc3cccc(C(F)(F)F)c3)c3nc(N(C)C)ncc23)CC1,FLO-1,"cell growth or viability, resazurin",5 days,,EC50,> 30 µM
CC12CCCC(NS(=O)(=O)c3ccc(C#N)cc3)(C1)C1CC(C)(C)C1CC2 (centres unmarked),HT-29,"cell growth or viability, CCK-8",50 µM,,inhibition,83.8%
CCC(=CCc1c(O)cc2c(c1O)C(=O)CC(c1ccc(OC)c(O)c1)O2)CC (centres unmarked),HeLa,"cell growth or viability, MTT","0.781 µM, 48 h",,inhibition,5.92%
CCN(CC)CC(=O)Nc1cccc(-n2cc(-c3ccc4ccc(-c5cn(-c6cccc(NC(=O)CN(CC)CC)c6)nn5)cc4c3)nn2)c1,RCC4,"PCR angiogenesis array, item: IFNA1","5 x IC50, 4 h, normoxia",reference: untreated,fold regulation,-1.49
CC12CCCC(NS(=O)(=O)c3ccc(N)cc3)(C1)C1CC(C)(C)C1CC2 (centres unmarked),HT-29,"cell growth or viability, CCK-8",10 µM,,inhibition,< 50%
